Assay results pooled from the literature.
Parts stem from different laboratories: compare values within a part only. Positions count from the first letter of the parent shown.

Block 1
Target: RNA binding protein fox-1 homolog 2, RRM domain, GST-SBP tag (RBFOX2, Homo sapiens, UniProt O43251-10, residues 100-194)
Technique: RNA Bind-n-Seq
Form: RNA
Medium: in vitro
Concentration: 365 nM
Setting: natural RNA segment, single round, ends assumed
Relative to: no-protein control
Direction: higher = stronger binding
Residues (chain): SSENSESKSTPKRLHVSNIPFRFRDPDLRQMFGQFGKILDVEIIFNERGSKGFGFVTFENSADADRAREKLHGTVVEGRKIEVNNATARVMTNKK
Oligonucleotide	RBNS enrichment (R)
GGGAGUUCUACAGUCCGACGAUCGCCUUAUGUGUGUCGUUAACAUUUAUAUUUUCAUUCAAAAUAUGUAUUCAGUGUUUAUUUCCUUAAACAGACUUUGUUAAUUUAGGAAAUAUCUCCAAGUGGAAACGUGCUGGAAUUCUCGGGUGCCAA	0.307
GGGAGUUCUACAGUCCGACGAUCGCUUUGUUUUGUUUUGUUUUUUUGAGACAGGGAUUCUCUGUGUAGCCCUGGCUGGCCUGGAACUCACUCUGUGGACCAGGCUGGUCUCCAACUCAGAUCCUCCUGCCUCUUGGAAUUCUCGGGUGCCAA	0.59
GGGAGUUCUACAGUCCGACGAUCAAAAUUCCAGUAAUUUCGAAGAAUGUGGUGUUGGUGCUUUCCUAAUAAAGAAAUAAUUUAGCUUGACAAAUGCAGCCUCUUUCUUUGAAUUCUAGAGGAUUGAAACCCUUUGGAAUUCUCGGGUGCCAA	0.337
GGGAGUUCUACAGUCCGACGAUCUAUAUUCCUGCAUAACUCAAUCUGAACCAAGGAUUGUAGUUUAGUUUUCCUCCUUGCCUUCCCUUCUGUGUGACCGACCCCUUGGCCAAAAAAAAACAAAAAGCAAAAAAUGGAAUUCUCGGGUGCCAA	0.905
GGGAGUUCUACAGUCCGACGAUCUGCCGGGAGGGGUCGGAUCCUCUAGGCAUCGCCUUCACAGCCCCCUGCCCCCUGCCCUCUGUCCUGGCUCUGCACCUGGUAUAUGGGUCAUGGACCCAGAUGGGGCUUUCUGGAAUUCUCGGGUGCCAA	0.751
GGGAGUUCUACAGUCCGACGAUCCCCGGGAGGGACCUUCCCUGCCCUGCUGGGGGUGCUCUUUGGACACUGGAUUAUGAGGAAUGGAUAAAUGGAUGAGCUAGGGCUCUGGGGGUCUGCCUGCACACUCUGGGUGGAAUUCUCGGGUGCCAA	7.53
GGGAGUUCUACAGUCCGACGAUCUGUAGACCCUGCACAAUCUCUUGGUGCUAUCUAGCCAUUACCCCCAUUUUUUUUUUAAAGGCCAUCUGAAAUUCCAUUUGUCAUGGUGGGAAGCAUUUUGGAUAUGAUGCUGGAAUUCUCGGGUGCCAA	2.03
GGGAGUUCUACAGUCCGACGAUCACUGGAAGCAGGGGAGGUACGAGAGAACUUUUACCCUGUGGUCCUCAACCUGAGACCAAUAUGCCAGGCCAAGCACAGCCUCCUGGUAUCUCUGGAGCACAACUACAGCAUGGAAUUCUCGGGUGCCAA	2.23

Block 2
Target: CCNA1, cyclin fold, Cln2 fusion (human)
Technique: yeast growth competition, sequencing
Medium: yeast
Setting: weak parent motif
Relative to: not given
Direction: higher = stronger binding
Starting sequence: PKMYT1 docking peptide (human); SFEPRNLLSLFED; partner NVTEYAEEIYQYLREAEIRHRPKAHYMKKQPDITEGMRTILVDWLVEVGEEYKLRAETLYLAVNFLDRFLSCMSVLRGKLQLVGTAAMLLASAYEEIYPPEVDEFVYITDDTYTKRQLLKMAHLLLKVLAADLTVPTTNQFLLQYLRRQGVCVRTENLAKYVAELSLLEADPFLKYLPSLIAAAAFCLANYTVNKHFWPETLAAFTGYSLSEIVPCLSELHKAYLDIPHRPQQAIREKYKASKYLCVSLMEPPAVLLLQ
Substitution	normalised enrichment score
L10N	0.443
P4A	0.217
E3H	0.287
F2V	-0.19
E12C	0.165
P4K	0.402
S9P	0.322
S9L	0.123
P4D	-0.013
S9A	0.143
N6K	0.0995
S1P	0.119
F11T	0.133
E12G	-0.0976
L7Q	0.285
F2K	0.323

Block 3
Target: Histone acetyltransferase KAT6A, winged helix 2, GST fusion (KAT6A, Homo sapiens, UniProt Q92794, residues 85-181)
Technique: protein binding microarray
Form: double-stranded DNA, one strand shown
Medium: in vitro
Concentration: not given
Setting: 8-mer, flanks averaged, mean of 2 arrays, mostly near background
Relative to: not given
Direction: higher = stronger binding
Construct (chain): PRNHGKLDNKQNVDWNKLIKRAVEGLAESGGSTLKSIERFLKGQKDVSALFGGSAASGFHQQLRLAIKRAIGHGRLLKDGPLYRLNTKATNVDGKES
Oligonucleotide	E-score
TACCTCAA	-0.0756
TAATCCAA	-0.0161
AAGTTGGT	0.0298
ATGTTGAA	-0.0467
ACCGATGG	-0.157
CGAATGAA	-0.0281
ATCGGTTG	-0.0833
GGTAGGAA	-0.0761
AACAGCTA	-0.149
CAATGCGC	0.012
GCCGCCAC	0.0994
ATGAAGGC	-0.0712
AGGGATCG	0.0381
CAGTAAGG	-0.0405
CGCAGTAC	0.083
ACAGAAAG	0.0932
ACTCTCGA	0.0511
CGGTGCTC	0.184
CTGCTAAA	0.151
TAACATCA	0.0677
GAGTTTGA	0.00992
ACCGTTAT	0.00464
CCAAAAAC	0.0455
ACACAACA	0.0982
CAGTTCCC	0.163

Block 4
Target: Interferon regulatory factor 3, full length, phosphomimetic (IRF3, Homo sapiens, UniProt Q14653, residues 1-427, S386D/S396D/S398D/S402D/T404D/S405D)
Technique: protein-binding microarray
Form: double-stranded DNA, one strand shown
Medium: in vitro
Concentration: 2540 nM top
Setting: 60-bp whole probe
Added: salmon DNA 0.4 mg/ml
Relative to: random background probes
Direction: higher = stronger binding
Constant ends, left off below: GCCTAGCAC … GTCTTGATTCGCTTGACGCTGCTG
Construct (chain): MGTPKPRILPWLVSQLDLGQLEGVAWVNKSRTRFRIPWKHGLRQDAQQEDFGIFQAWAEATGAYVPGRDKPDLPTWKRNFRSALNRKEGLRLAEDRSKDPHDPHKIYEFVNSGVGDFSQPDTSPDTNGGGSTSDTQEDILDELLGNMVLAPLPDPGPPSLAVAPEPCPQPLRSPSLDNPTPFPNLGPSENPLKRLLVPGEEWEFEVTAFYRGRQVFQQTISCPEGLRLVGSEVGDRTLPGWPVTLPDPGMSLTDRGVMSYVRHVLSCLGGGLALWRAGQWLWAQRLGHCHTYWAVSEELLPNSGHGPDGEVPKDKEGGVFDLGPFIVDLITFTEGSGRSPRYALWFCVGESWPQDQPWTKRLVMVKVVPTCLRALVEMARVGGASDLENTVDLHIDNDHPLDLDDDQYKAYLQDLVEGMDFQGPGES
Oligonucleotide	fitted relative affinity
GACGAAATGAGACTGGAGACGTGCTAG	-0.0811 z-score
TCAATTATTGTTTCCTCACTGTGCTAG	2.28 z-score
ATAGATATCGGGTATCGATTAGTGCTA	0.575 z-score
TCAAATTTTTGCATCGTACTGTGCTAG	-0.0339 z-score
TACGAACTGAGTCTCGAGACGTGCTAG	-0.196 z-score
CATGAACTGTTTCTTGAAAAGTGCTAG	0.521 z-score
TCAAGGTTGTTTCTAATACTGTGCTAG	0.591 z-score
GACGGTCTCCTTATTCTGACGTGCTAG	2.45 z-score
TCACTTCTCTAACCTCTCACTGTGCTA	1.7 z-score
AGACAGAAGGGAAACAGGTTGGTGCTA	2.22 z-score
ACTCGTTTACATTTTCCAAAGTGCTAG	2.58 z-score
TTAGATTTCGGCTTTCGATTAGTGCTA	1.61 z-score
ATGGCTCTCTGGACTGTGTGTGTGCTA	-1.26 z-score
GACGGTTCCGGTTGCGGGACGTGCTAG	2.37 z-score
TTAGGTTCCGGTTTCGCTTAGTGCTAG	6.31 z-score
TTAGGACTGGGGCTCGGTTAGTGCTAG	-1.08 z-score
GACGTTATCCTTATCCTGACGTGCTAG	3.13 z-score
TCATAAATGATATATATCACTGTGCTA	0.401 z-score
GACGATATCGGGTTACGAGACGTGCTA	0.412 z-score
